Assay results pooled from the literature.
Parts stem from different laboratories: compare values within a part only. Changes are numbered by the printed parent chain.

Study 1
Target: Histone acetyltransferase KAT6A, winged helix 1, GST fusion (KAT6A, Homo sapiens, UniProt Q92794, residues 1-85)
Technique: protein binding microarray
Molecule type: double-stranded DNA, one strand shown
Sample: in vitro
Concentration: not given
Setting: 8-mer, flanks averaged, mean of 2 arrays, mostly near background
Relative to: not given
Direction: higher = stronger binding
Endpoint: E-score
Target sequence (chain): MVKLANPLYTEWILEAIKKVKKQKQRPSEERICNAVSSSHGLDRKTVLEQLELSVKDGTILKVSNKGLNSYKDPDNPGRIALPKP
Sequence = GCCCCACA; result = -0.13
Sequence = CTGATTAC; result = 0.0659
Sequence = ACATGTAA; result = -0.076
Sequence = ACCGACCA; result = -0.216
Sequence = TAACTCGA; result = -0.132
Sequence = ACCGCCAC; result = 0.2
Sequence = AGATGTCG; result = -0.0217
Sequence = CGCAAGCA; result = 0.055
Sequence = ACCGGACA; result = -0.082
Sequence = GATCTGCC; result = -0.0881
Sequence = CATTCCGG; result = 0.0338
Sequence = TCCAATCA; result = -0.0545
Sequence = TGGGTTAA; result = -0.21
Sequence = ACCGTCCT; result = 0.158
Sequence = CATATGAC; result = -0.0102
Sequence = AAGTCAGG; result = 0.00448
Sequence = ACTTAGCA; result = -0.231
Sequence = GAAGGAGC; result = 0.0312
Sequence = GGCTGGGA; result = -0.141
Sequence = GAAAGGAA; result = -0.0766
Sequence = ACAACAGG; result = -0.213
Sequence = AGAAAGAA; result = -0.0327
Sequence = AAGATCCC; result = -0.12
Sequence = GCCACAGC; result = -0.102
Sequence = ACATTTAG; result = -0.191

Study 2
Target: Ras GTPase-activating protein-binding protein 1, full length (G3BP1, Homo sapiens, UniProt Q13283)
Chain of UniProt Q13283 (whole entry, looked up): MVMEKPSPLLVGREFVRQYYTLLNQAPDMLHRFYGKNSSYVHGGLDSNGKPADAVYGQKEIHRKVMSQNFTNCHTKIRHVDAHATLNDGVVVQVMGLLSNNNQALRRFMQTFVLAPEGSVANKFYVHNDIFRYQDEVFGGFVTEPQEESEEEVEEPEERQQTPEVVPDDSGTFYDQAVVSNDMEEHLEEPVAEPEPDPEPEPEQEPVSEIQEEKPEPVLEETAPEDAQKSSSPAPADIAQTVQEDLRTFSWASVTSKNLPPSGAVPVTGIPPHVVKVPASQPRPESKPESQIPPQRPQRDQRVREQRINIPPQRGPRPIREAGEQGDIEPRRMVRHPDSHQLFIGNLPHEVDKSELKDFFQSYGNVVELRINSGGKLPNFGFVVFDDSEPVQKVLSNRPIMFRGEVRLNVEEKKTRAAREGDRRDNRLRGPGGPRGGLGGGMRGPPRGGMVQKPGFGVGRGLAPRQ
Technique: RNA Bind-n-Seq
Molecule type: RNA
Sample: in vitro
Concentration: 200 nM
Setting: whole 134-nt RNA, ends assumed
Added: 150 mM LiCl
Relative to: input library
Direction: higher = stronger binding
Endpoint: log2 enrichment
All molecules: 7-deaza-guanosine replaces G
Sequence = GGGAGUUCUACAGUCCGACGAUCAAGUCCUGUGCUACACAUCGUAUGUACCGAAUCGGGAAAAGGGAAAAGGAAAAGGGAAAGUAUUAUGUUACGCCGUUCGGAUCUGCACUUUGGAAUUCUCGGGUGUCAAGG; result = -0.133
Sequence = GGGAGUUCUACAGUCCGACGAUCGUCCUGUGCUACACAUCGUAUGUACCGAAUCGGGAAAAAAAGGGUUUGGGUUUUUGGGAAAGUAUUAUGUUACGCCGUUCGGAUCUGCACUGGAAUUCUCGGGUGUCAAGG; result = -1.44
Sequence = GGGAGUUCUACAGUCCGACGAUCUCCUCAAGUCCUGUGCUACACAUCGUAUGUACCGAAUCGGGCGGGCGGCGGGAAAGUAUUAUGUUACGCCGUUCGGAUCUGCACUUCCAGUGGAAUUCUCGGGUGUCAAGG; result = 1.04
Sequence = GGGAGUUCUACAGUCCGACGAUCUCGGAGGUGGAUUUUGUUUAUUUUUUUAGCUCAUUUCCAGGGGUGGGAAUUUUUUUUUAAUAUGUGUCAUGAAUAAAGUUGUUUUUGAAAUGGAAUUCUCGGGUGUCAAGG; result = 0.428
Sequence = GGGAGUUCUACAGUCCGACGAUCGCUUAUGUAGACAUGAGGAAGAUUGGCAGUAGCCGGGGAAUGGUUUCUGCAUACCCUCGACAGCUAGAGUCAUUAAUCCGCUUAGCAGAAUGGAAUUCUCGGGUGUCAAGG; result = 1.04
Sequence = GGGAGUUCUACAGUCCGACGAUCGUCCUGUGCUACACAUCGUAUGUACCGAAUCAAAUUUUUUUAAACCCAAAUUUUUAAAAAAGUAUUAUGUUACGCCGUUCGGAUCUGCACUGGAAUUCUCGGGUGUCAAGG; result = -2.54
Sequence = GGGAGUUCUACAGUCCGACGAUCACCAUGCAGGUGGGCAUCUUUGGGAAGUGGGGCAAGGGGGGGAUAGGGAGGGGGGUAAAACUUUGGGAACAGGUGGUCCCAGGUCGUUUCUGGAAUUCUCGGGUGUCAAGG; result = 0.0828
Sequence = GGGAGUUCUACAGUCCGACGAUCUCCUCAAGUCCUGUGCUACACAUCGUAUGUACCGAAUCGGCGGGCGGGCGGGAAAGUAUUAUGUUACGCCGUUCGGAUCUGCACUUCCAGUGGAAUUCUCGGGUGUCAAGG; result = 1.32
Sequence = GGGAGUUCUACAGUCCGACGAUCCUCAAGUCCUGUGCUACACAUCGUAUGUACCGAAUCGGGUUGGUUGGUUGGGGAAAGUAUUAUGUUACGCCGUUCGGAUCUGCACUUCCAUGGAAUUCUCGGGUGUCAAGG; result = 0.292
Sequence = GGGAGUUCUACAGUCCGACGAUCUCCUGUGCUACACAUCGUAUGUACCGAAUCGGGGAAAGGGGAAAAAGGGGAAAAAGGGGAAAGUAUUAUGUUACGCCGUUCGGAUCUGCAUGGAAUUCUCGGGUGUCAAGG; result = 0.313
Sequence = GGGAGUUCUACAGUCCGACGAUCCGGUCAGACUUUGUGUUACAUAAAUUAACACUGUUCUCAGGUAAUGAGAGAUCCAAACACCAAGCGCUCCAGGGGCUUUGGGUUUGUCACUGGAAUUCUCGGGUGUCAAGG; result = -1.22

Study 3
Target: CCNF, cyclin fold, Cln2 fusion (human)
Technique: yeast growth competition, sequencing
Sample: yeast
Setting: strong parent motif
Relative to: not given
Direction: higher = stronger binding
Endpoint: normalised enrichment score
Parent: RBL2 docking peptide (human); STTRRRLFVENDS; partner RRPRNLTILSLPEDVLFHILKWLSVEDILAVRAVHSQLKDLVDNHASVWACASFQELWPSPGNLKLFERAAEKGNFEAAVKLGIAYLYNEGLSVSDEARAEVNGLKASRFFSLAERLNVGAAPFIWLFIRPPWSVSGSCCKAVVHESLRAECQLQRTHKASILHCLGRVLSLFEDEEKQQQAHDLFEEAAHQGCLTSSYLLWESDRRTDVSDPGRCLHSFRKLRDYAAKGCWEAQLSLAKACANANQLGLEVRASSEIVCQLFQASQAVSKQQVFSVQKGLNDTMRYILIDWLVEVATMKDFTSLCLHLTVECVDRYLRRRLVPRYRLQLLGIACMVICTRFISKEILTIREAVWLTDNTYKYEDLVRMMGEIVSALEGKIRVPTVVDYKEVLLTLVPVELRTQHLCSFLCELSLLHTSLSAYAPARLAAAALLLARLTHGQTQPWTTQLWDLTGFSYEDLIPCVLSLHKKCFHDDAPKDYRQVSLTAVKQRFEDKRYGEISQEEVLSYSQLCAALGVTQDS
Change = STTRSRLFVENDS [R5S]; result = 1.31
Change = STTFRRLFVENDS [R4F]; result = 4.8
Change = STTDRRLFVENDS [R4D]; result = -0.221
Change = STLRRRLFVENDS [T3L]; result = 7.76
Change = STTRRRLPVENDS [F8P]; result = 0.891
Change = STIRRRLFVENDS [T3I]; result = 9.42
Change = STTRRFLFVENDS [R6F]; result = 1.63
Change = STTRRRDFVENDS [L7D]; result = 1.13
Change = STTRRRLFFENDS [V9F]; result = 9.74
Change = SSTRRRLFVENDS [T2S]; result = 8.07
Change = STFRRRLFVENDS [T3F]; result = 5.9
Change = STTRRRLFVPNDS [E10P]; result = 8.63
Change = STTRRRLFVEYDS [N11Y]; result = 8.26
Change = SHTRRRLFVENDS [T2H]; result = 8.97
Change = STTRRRLFVENDY [S13Y]; result = 7.9
Change = STTRRRLFVDNDS [E10D]; result = 9.16
Change = STTRRRLFVRNDS [E10R]; result = 6.81
Change = STTRRRLFLENDS [V9L]; result = 9.75
Change = STTRRRLFNENDS [V9N]; result = 8.69

Study 4
Target: Interferon regulatory factor 7, full length, phosphomimetic (IRF7, Homo sapiens, UniProt Q92985, residues 1-503, S101K/S471D/S472D/S475D/S476D/S477D/S483D/S484D/S487D)
Technique: protein-binding microarray
Molecule type: double-stranded DNA, one strand shown
Sample: in vitro
Concentration: 250 nM
Setting: 60-bp whole probe
Added: salmon DNA 0.4 mg/ml
Relative to: random background probes
Direction: higher = stronger binding
Endpoint: log fluorescence
Constant ends, left off below: GCCTAGCAC … GTCTTGATTCGCTTGACGCTGCTG
Residues (chain): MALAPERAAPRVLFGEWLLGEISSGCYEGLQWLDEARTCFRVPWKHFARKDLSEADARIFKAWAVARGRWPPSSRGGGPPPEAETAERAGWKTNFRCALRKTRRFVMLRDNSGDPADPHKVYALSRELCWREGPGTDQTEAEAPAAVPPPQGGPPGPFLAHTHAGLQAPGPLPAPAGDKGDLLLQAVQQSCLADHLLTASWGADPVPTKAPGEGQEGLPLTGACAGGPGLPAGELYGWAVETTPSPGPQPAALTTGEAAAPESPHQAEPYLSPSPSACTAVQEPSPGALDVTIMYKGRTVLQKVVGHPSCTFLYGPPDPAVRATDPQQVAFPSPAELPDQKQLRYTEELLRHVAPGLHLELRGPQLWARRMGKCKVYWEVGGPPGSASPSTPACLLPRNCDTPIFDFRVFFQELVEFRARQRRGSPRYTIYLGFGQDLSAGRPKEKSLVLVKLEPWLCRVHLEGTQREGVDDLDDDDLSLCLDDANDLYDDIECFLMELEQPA
Sequence = CCCCTCTTCTGGATCTCAGAGTGCTAG; result = 0.212 z-score
Sequence = TCATCTTTCCTTCTTGAACTGTGCTAG; result = 1.54 z-score
Sequence = GACGGACTGCTTCTCATGACGTGCTAG; result = -0.264 z-score
Sequence = TGCTTTCTTTAACTCATTTTGTGCTAG; result = 1.9 z-score
Sequence = TTAGGACTGCGACTGGGTTAGTGCTAG; result = -0.529 z-score
Sequence = GACGGACAGGGTATCGGGACGTGCTAG; result = -0.702 z-score
Sequence = TTAGGACCGGGACTGGGTTAGTGCTAG; result = 0.624 z-score
Sequence = TTAGGACGGCTACTGCTTTAGTGCTAG; result = -0.612 z-score
Sequence = GACGATTTAAGTCTCGAGACGTGCTAG; result = 0.758 z-score
Sequence = GACGAACTGAGACTGGAGCCGTGCTAG; result = -0.36 z-score
Sequence = TTAGGTTCCCTTTTCCTTCAGTGCTAG; result = 4.29 z-score
Sequence = GCCGGACTGGGACTGGGGACGTGCTAG; result = -0.501 z-score
Sequence = TCAAATATGAGACTGGGACTGTGCTAG; result = 0.0168 z-score
Sequence = TCATTTTTGGAATGTCTTACTGTGCTA; result = 0.926 z-score
Sequence = GTCGGTCTCCTTCTCCTGACGTGCTAG; result = 0.761 z-score
Sequence = GTCATTTACATTTTAGTAGTGTGCTAG; result = 0.766 z-score
Sequence = TTAGGTATCGGGTTTCGGTTGGTGCTA; result = 7.39 z-score
Sequence = GACGGTTTCGGGTTTCGGGCCGTGCTA; result = 10.9 z-score
Sequence = GACGGACTGTTTATCCTGACGTGCTAG; result = -0.0178 z-score

For quick reference, copied from above (study 4):
Sequence = GACGATTTAAGTCTCGAGACGTGCTAG; result = 0.758 z-score
Sequence = GACGAACTGAGACTGGAGCCGTGCTAG; result = -0.36 z-score
Sequence = GTCGGTCTCCTTCTCCTGACGTGCTAG; result = 0.761 z-score
Sequence = GACGGACTGTTTATCCTGACGTGCTAG; result = -0.0178 z-score
Sequence = TTAGGACTGCGACTGGGTTAGTGCTAG; result = -0.529 z-score
Sequence = GACGGACAGGGTATCGGGACGTGCTAG; result = -0.702 z-score
Sequence = TCAAATATGAGACTGGGACTGTGCTAG; result = 0.0168 z-score
Sequence = TCATCTTTCCTTCTTGAACTGTGCTAG; result = 1.54 z-score
Sequence = TTAGGACCGGGACTGGGTTAGTGCTAG; result = 0.624 z-score
